Measured values pooled from the literature.
Parts stem from different laboratories: compare values within a part only.

Series 1 — technique: protein binding microarray; form: double-stranded DNA, one strand shown; matrix: in vitro; concentration: not given; relative to: not given; reading: higher = stronger binding; endpoint: E-score
Target: Histone acetyltransferase KAT6A, winged helix 2, GST fusion (KAT6A, Homo sapiens, UniProt Q92794, residues 85-181)
Notes: 8-mer, flanks averaged, mean of 2 arrays, mostly near background
Residues (chain): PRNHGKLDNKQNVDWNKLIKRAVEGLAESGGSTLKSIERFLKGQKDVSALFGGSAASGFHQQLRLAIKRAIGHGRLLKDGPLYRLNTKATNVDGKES
ATTTCCAC: -0.0102
CGCGTCAC: 0.119
GGTTTATA: 0.0218
GCTACGAC: -0.0106
GAGACGCA: 0.0198
AGCCAAAA: 0.136
CCTATGTC: -0.00106
CCGTCAGG: 0.137
CAGTCATG: -0.164
ACCCCCGC: -0.015
AGTCTTGA: -0.125
ATACCACA: -0.0505
ACGCCAAA: -0.00378
ATTCATGA: -0.0996
CTGGGACA: 0.0718
CTGCCGTA: 0.000215
CTCTAGGC: -0.039
AACACTAG: -0.134
AGATACTA: -0.105
AGCTGCAT: -0.0796
AGAGCGAA: 0.131
CGGTGACG: 0.054
ATATCCAA: 0.0571
CGGCCAGC: 0.149
CTGCAGTC: -0.15

Series 2 — technique: RNA Bind-n-Seq; form: RNA; matrix: in vitro; concentration: 365 nM; relative to: no-protein control; reading: higher = stronger binding; endpoint: RBNS enrichment (R)
Target: RNA binding protein fox-1 homolog 2, RRM domain, GST-SBP tag (RBFOX2, Homo sapiens, UniProt O43251-10, residues 100-194)
Notes: natural RNA segment, single round, ends assumed
Target sequence (chain): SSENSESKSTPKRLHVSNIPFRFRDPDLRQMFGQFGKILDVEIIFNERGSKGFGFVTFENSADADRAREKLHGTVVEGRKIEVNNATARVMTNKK
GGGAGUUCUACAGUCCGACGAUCAGGGCACAAACCACUCCACAGUCCCAGUGUGGAGUCACAGUCUAGAGAGAAUUGGAAAUGCACGUGCUUAAAUGAUACAGCUUUAAUCUGUAUUAUGACUGCUGGUGGUAUGGAAUUCUCGGGUGCCAA: 0.498
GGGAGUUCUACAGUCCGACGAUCCGAUUGAGUAGCUGAGAUUACAGGCAUGCAUCACUAUGCCUGGCUUUUUGUAUUUUUUAGUAGAGAUGGGGUUUACCAUGUUGGCCAGGCUAGUCUCAAACUCCUGACCUUGGAAUUCUCGGGUGCCAA: 1.12
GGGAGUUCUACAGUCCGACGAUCCUCAGCCUCCUGCUGCCCUGCCUUGAGCUGCCAGAGGAGGCCUUGGCGUUGCUAGGAUUGCGUCAGUUUUCCUGUUUGCACUAUUUCUUUUUGUAACAGUGACCCUGUCUUGGAAUUCUCGGGUGCCAA: 0.25
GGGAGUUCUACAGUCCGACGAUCAAGGGGAUGUGAGGGCCUCCACUGAAGCAGGGAGGCAGCUGUGUAAUCCUAUGUCAGCUCUCUUAGGAAGCCCCAGUACUUAUAUUGGGCAUGCACUUGCCCUUAAAAACUGGAAUUCUCGGGUGCCAA: 0.503
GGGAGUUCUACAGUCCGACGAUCAUCCAAUGGGAAUGAAUGUAGAUGGCUAAAGGACUCUUCCUCAGUGUGGUGUAUAUUUCAACAGGGACCCUUGUAAAUUGUCAUAUGCCAAUAAAAUGUCCUAAGUGGUAUGGAAUUCUCGGGUGCCAA: 1.21
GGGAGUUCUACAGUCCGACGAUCCUGCUGUAUAACUCCUUGCCAUGCAAACUCUCAAGAGGCCAAUAUAUUCCUGGCCAUGUUUGAAUGAGCCUCUUAAAAUAAACUUAGAGCCAUGCAAAUGCCAGCAGCUUUGGAAUUCUCGGGUGCCAA: 0.392
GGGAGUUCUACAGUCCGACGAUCGCCAGCUCCCUCACAUGUACUUGGUCCAACUGUAGGUGACUGGUUAUCACAUCUUCACUGGCCCCUGUGGCCCUGCAUGUAGUAGGGGAGGCUUCAGUCAGCCCCUCACUUGGAAUUCUCGGGUGCCAA: 1.2
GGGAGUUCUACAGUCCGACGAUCAGGACAUAAAUUCAGAGUGGCUGGCCCUGAAUAAUGCCAGGCUGGGCAGCGAGAGGACAGGCUAUGGCUUGCUCCUGGACCUAUACUCCCUUAGCCCCAGUCCCACAGAUUGGAAUUCUCGGGUGCCAA: 0.507
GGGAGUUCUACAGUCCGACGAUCCUUCUUCUCUUUCUUUCUUUUUUUUUAUGGUUGGAAGAAAAAAGAUUCUUUGACUAGUGAAAAUCUCAUAAAAUUUAAAUACGUGUGAGUAAAACACAUGCCUGAACACAUGGAAUUCUCGGGUGCCAA: 0.782
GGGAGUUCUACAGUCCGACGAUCUUGAGCAGAAUGACUUGACUGAGUGGUUCUUUGUUGGCCUCAGUUGCUUUAUGUGGGCAUGAGAUGUCCCGUGAGGUCAUAGCUCCUUCUUUAGGAACUGCCUGUCCAUGUGGAAUUCUCGGGUGCCAA: 0.709
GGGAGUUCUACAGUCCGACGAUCUGAUGAAGUACAAGACAAAUACCCUGGGAAAAAAAAUGAAAGUAUGAGAAAUUGGCAUUUCUACAGCUGAAAUUCAAUGUAUCUGUUAGAGAUGUCUGGAAGGGUUACUUUGGAAUUCUCGGGUGCCAA: 0.994
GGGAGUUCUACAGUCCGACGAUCUCAUAUACUGCCAUGUACUAGUUUUAGUUUUCUCUUAGAACAUUGUAUUACAGAUGCCUUUUUUGUAGUUUUUUUUUUUUUUAUGUGAUCAAUUUUGACUUAAUGUGAUUUGGAAUUCUCGGGUGCCAA: 1.85

Series 3 — technique: RNA Bind-n-Seq; form: RNA; matrix: in vitro; concentration: 1 µM; notes: whole 134-nt RNA, ends assumed; with: 150 mM KCl; relative to: input library; reading: higher = stronger binding; endpoint: log2 enrichment
Target: Ras GTPase-activating protein-binding protein 1, C-terminal RGG region (G3BP1, Homo sapiens, UniProt Q13283)
Sequence of UniProt Q13283 (whole entry, looked up): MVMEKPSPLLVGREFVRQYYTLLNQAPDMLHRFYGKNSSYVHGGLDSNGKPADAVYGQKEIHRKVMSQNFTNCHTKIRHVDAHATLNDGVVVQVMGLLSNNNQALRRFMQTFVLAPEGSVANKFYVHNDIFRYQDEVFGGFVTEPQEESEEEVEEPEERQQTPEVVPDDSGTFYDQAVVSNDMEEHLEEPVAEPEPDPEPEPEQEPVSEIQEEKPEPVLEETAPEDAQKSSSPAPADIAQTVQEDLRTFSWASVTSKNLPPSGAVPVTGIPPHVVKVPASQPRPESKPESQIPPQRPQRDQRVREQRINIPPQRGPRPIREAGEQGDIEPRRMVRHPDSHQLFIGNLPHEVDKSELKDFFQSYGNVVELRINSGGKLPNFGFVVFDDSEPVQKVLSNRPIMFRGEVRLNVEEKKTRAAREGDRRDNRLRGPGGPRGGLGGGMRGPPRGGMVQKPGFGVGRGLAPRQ
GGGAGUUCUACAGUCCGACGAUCUCACCUGUUUACAGUGAAUCAGACGUCCCAAUAGAUGUGGAGACGGUCACAUCAACGCCUAUGCCACUCUAUGACAAUCAGAAGGCACGCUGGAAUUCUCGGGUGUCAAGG: -1.84
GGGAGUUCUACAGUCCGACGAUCCACAGACAACACGCAUCCACACAGACACAGAGGGAAGGGGUUGGGAUGGGGACAGGGUGCACAGCAGGGCGGGGUAGGACCCCAGCCCCUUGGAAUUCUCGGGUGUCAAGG: -0.301
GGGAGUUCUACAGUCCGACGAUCUGUGCUACACAUCGUAUGUACCGAAUCGGGGUUUUUUUGGGGUUUUUUUGGGGUUUUUUUGGAAAGUAUUAUGUUACGCCGUUCGGAUCUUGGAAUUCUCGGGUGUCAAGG: -0.703
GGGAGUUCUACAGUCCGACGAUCUAACUUUAGAGGAGGAUCUGAUGGAUAUGGCAGUGGACGUGGAUUUGGGGAUGGCUAUAAUGAGUAUGGAGGAGGACCUGGAGGUGGCAAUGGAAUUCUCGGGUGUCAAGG: -0.83
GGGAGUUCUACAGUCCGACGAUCUGUGCUACACAUCGUAUGUACCGAAUCGGGGAAAAAAAGGGAAAAAAAGGGGAAAAAAAGGGAAAGUAUUAUGUUACGCCGUUCGGAUCUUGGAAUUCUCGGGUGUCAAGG: -0.947
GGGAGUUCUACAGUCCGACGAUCCCUGUGCUACACAUCGUAUGUACCGAAUCGGAAAAAAGGGGAAAAAAGGGGAAAAAAGGGAAAGUAUUAUGUUACGCCGUUCGGAUCUGCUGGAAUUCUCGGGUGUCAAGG: -1.41
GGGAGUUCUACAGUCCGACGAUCUCCUGUGCUACACAUCGUAUGUACCGAAUCGGGGUGGGGAAAAAAAGGGGAAAAAGGGGAAAGUAUUAUGUUACGCCGUUCGGAUCUGCAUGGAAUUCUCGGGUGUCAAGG: 1.27
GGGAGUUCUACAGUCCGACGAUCCUCAAGUCCUGUGCUACACAUCGUAUGUACCGAAUCGGAGGUUUUUUUGGAGGAAAGUAUUAUGUUACGCCGUUCGGAUCUGCACUUCCAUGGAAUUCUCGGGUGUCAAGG: -1.21
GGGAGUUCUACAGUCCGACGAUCAGGUCAUGGAUCAAAAAGAACAUAAAUUGAAUGGGAAGGUGAUUGAUCCUAAAAGGGCCAAAGCCAUGAAAACAAAAGAGCCGGUUAAAAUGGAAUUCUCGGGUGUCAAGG: -2.16
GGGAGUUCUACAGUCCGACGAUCUAACUUUAGAGGAGGAUCCGAUGGAUAUGGCAGUGGACGUGGAUUUGGGGAUGGCUAUAAUGGGUAUGGAGGAGGACCUGGAGGUGGCAAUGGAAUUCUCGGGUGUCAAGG: -1.22

Series 4 — technique: aptamer microarray, sandwich; form: DNA with 2'F-ANA; matrix: in vitro; concentration: 200 nM; with: Cy3 exosite-II aptamer, 400 nM; reading: higher = stronger binding; endpoint: mean fluorescence intensity; strand: GGTTGGTGTGGTTGG
Target: Prothrombin, mature alpha-thrombin (F2, Homo sapiens, UniProt P00734)
Notes: whole 15-mer aptamer, many near background
2'F-ANA at 1 2 4 5 8 11 12 15: 80.8 a.u.
2'F-ANA at 4 8 9 10 12 13: 81.3 a.u.
2'F-ANA at 3 7 12 13 15: 1290 a.u.
2'F-ANA at 1 2 3 4 6 7 9 11 12: 225 a.u.
2'F-ANA at 2 3 4 5 8 13: 68.3 a.u.
2'F-ANA at 6 9 10 13 14: 109 a.u.
2'F-ANA at 5 6 8 10 13 14: 48.1 a.u.
2'F-ANA at 1 6 9 10 12 15: 71.7 a.u.
2'F-ANA at 1 5 6 8 9 10 11 13 14: 47 a.u.
2'F-ANA at 1 3 6 7 8 9 10 13: 80.8 a.u.
2'F-ANA at 1 5 6 10 13 14: 65.4 a.u.
2'F-ANA at 2 3 4 5 6 7 10 12 13 15: 73 a.u.
2'F-ANA at 1 2 3 4 5 7 9 11 12 13 15: 67.2 a.u.
2'F-ANA at 2 5 6 8 11 12 13 15: 87.2 a.u.
2'F-ANA at 1 2 3 5 7 11 13 15: 50.2 a.u.
2'F-ANA at 4 6 7 8 9 11 12 14: 94.3 a.u.
2'F-ANA at 1 2 4 5 6 10 11 14: 48.4 a.u.
2'F-ANA at 1 2 3 7 8 9 10 12 15: 97.5 a.u.
2'F-ANA at 1 5 6 7 8 11 12 13 14 15: 48.3 a.u.
2'F-ANA at 1 2 4 7: 161 a.u.
2'F-ANA at 1 3 4 7 11 13 15: 155 a.u.
2'F-ANA at 1 3 5 6 7 9 10 14 15: 48.2 a.u.
2'F-ANA at 3 4 5 6 11 14: 52 a.u.
2'F-ANA at 2 4 9 10 11 12 14 15: 74.2 a.u.
2'F-ANA at 2 5 6 8 10 13 14: 50.2 a.u.

Some of these lines once more (series 1):
GCTACGAC: -0.0106
GAGACGCA: 0.0198
AGCCAAAA: 0.136
CCTATGTC: -0.00106
CCGTCAGG: 0.137
CAGTCATG: -0.164
ACCCCCGC: -0.015
AGTCTTGA: -0.125
ATACCACA: -0.0505
ACGCCAAA: -0.00378
ATTCATGA: -0.0996
CTGGGACA: 0.0718
